Results from different studies.
Protocols differ between the studies behind these lines.
TDP1: Tyrosyl-DNA phosphodiesterase 1 (TDP1, Homo sapiens, UniProt Q9NUW8)
Sequence of UniProt Q9NUW8 (whole entry, looked up): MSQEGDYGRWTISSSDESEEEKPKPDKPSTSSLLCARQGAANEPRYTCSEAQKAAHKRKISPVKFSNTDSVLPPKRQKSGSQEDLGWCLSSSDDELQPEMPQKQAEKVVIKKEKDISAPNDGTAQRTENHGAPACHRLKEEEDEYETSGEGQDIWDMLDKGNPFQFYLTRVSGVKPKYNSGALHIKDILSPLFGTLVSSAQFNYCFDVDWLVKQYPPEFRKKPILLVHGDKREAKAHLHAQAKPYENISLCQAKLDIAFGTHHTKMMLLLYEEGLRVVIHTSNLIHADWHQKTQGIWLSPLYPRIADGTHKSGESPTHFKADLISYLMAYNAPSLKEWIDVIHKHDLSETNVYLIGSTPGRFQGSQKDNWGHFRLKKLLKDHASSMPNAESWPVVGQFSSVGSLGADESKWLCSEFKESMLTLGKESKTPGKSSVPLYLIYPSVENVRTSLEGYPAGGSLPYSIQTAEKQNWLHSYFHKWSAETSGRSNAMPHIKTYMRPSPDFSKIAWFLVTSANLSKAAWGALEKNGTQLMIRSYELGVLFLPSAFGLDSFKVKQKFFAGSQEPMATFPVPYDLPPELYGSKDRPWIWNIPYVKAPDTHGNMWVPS

Cc1ncsc1-c1ccc([C@@H]2CCCCCCNC(=O)C[C@@H]3N=C(c4ccc(cc4)OCCCCCC(=O)N[C@@H](C(C)(C)C)C(=O)N4C[C@H](O)C[C@H]4C(=O)N2)c2c(sc(C)c2C)-n2c(C)nnc23)cc1 — half-life (metabolic stability; rat, liver microsomes; 1 µM): 1.36 h
CN(C)C(=O)c1ccnc(N2Cc3cn(Cc4ccc(F)cc4Cl)nc3C2)n1 — half-life (metabolic stability; rat, liver microsomes): 2.05 h
Cc1nc(C)c2c(C)c(C=NOCc3ccc4nc(-c5ccccc5)c(Nc5ccc(C(=O)O)cc5)n4c3)sc2n1 (mixture of isomers) — inhibition (TDP1; enzyme activity, inhibitor; 100 µM, unpurified compound): 0.3%
CNC(=O)C1CCCN(C(=O)C2CC3CCC2N3C(=O)[C@@H]2C[C@@H](O)CN2C(=O)NCc2cccc(Cl)c2F)C1 (mixture of isomers) — half-life (metabolic stability; rat, liver microsomes): 5.28 h
O=C(c1ccnc(N2Cc3cn(Cc4ccc(F)cc4)nc3C2)n1)N1CCCCC1 — half-life (metabolic stability; rat, liver microsomes): 0.317 h
C[C@@H](Nc1nc2c(cnn2C(C)(C)C)c(=O)n1Cc1cccc(F)c1)c1ccc(Cl)cc1 — half-life (metabolic stability; rat, liver microsomes): 0.315 h
C=C(NC(=O)c1csc(-c2nc3c(cc2O)-c2nc(cs2)C(=O)NC(C(C)O)C(=O)NC(=C(C)OC)c2nc(cs2)C(=O)NC2c4nc(cs4)C(=O)NC(COC(=O)c4c5c6c(cccc6n4O)COC(=O)C(OC4CC(C)(O)C(N(C)C)C(C)O4)C2OC5)c2nc-3cs2)n1)C(N)=O (stereo not shown) — half-life (metabolic stability; rat, liver microsomes; 2 µM): 13.4 h
CN(C)C(=O)c1cccc(N2Cc3cn(Cc4ccc(F)cc4F)nc3C2)c1 — half-life (metabolic stability; rat, liver microsomes): 1 h
CC(C)(C)n1ncc2c(=O)n(Cc3cccc(F)c3)c(NCc3ccc(Cl)cn3)nc21 — half-life (metabolic stability; rat, liver microsomes): 0.483 h
COc1ccc(C=NOCc2ccc(-c3nc4cc(-c5ccccc5)ccn4c3Nc3ccc(C(=O)O)cc3)cc2)cc1Cn1cccn1 — inhibition (TDP1; enzyme activity, inhibitor; 100 µM, unpurified compound): 67.1%
O=c1c(-c2cnn(-c3ccc(Cl)cc3)c2)c(C(F)(F)F)oc2c(O)c(O)ccc12 — half-life (metabolic stability; rat, liver microsomes): > 8.33 h
C/C(N)=N/C(=N\S(=O)(=O)c1ccc(C(F)(F)F)cc1)N1C[C@H](c2ccccc2)C(c2ccc(Cl)cc2)=N1 — half-life (metabolic stability; rat, liver microsomes): > 2 h
CC(C)(C)n1ncc2c(=O)n(Cc3cccc(F)c3)c(NCc3cc(Cl)ccn3)nc21 — half-life (metabolic stability; rat, liver microsomes): 0.0717 h
CN(C)C(=O)c1ccnc(N2Cc3cn(Cc4ccc(F)cc4)nc3C2)n1 — half-life (metabolic stability; rat, liver microsomes): 2.63 h
CC(C)(C)n1ncc2c(=O)n(Cc3cccc(F)c3)c(NCc3ccc(F)cn3)nc21 — half-life (metabolic stability; rat, liver microsomes): 5.45 h
CCC(CC)CNC(=N)NC(=N)NCCCCCCNC(=N)NC(=N)NCC(CC)CC — half-life (metabolic stability; rat, liver microsomes; 2 µM): 0.61 h

For quick reference, copied from above:
CC(C)(C)n1ncc2c(=O)n(Cc3cccc(F)c3)c(NCc3cc(Cl)ccn3)nc21 — half-life (metabolic stability; rat, liver microsomes): 0.0717 h
Cc1ncsc1-c1ccc([C@@H]2CCCCCCNC(=O)C[C@@H]3N=C(c4ccc(cc4)OCCCCCC(=O)N[C@@H](C(C)(C)C)C(=O)N4C[C@H](O)C[C@H]4C(=O)N2)c2c(sc(C)c2C)-n2c(C)nnc23)cc1 — half-life (metabolic stability; rat, liver microsomes; 1 µM): 1.36 h
